Assay results pooled from the literature.
Lines come from different studies, so protocols differ. ± marks the error that the study gave.

Structure (SMILES)	assay	system	setting	how to read	endpoint	result
O=C(Nc1nc2cccc(-c3ccc(CN4CCS(=O)(=O)CC4)cc3)n2n1)C1CC1	measured: non-cardiac chest pain	human rheumatoid arthritis patients	oral, 200 mg once daily, 4 weeks, regardless of relatedness		treatment-emergent adverse events	0%
NC/C(=C\F)COc1cccc(Cn2c(=S)[nH]c(=O)c3[nH]cnc32)c1		dog hepatocytes	1 µM, 1 h		remaining compound	77%
CCn1cc(C(=O)N2CCOCC2)c(=O)c2cc(NC3Cc4ccccc4C3)cnc21		human, fed	oral suspension, 1200 mg/day twice daily, day 1, arithmetic mean		half-life	3.48 h
CNC(=O)c1ccc(-c2cnc3ncc(Cc4ccc5ncccc5c4)n3n2)cc1F		Japanese patients	oral, 400 mg twice daily, any grade		Seizure patients	1%
Cc1ccc([C@@H]2O[C@H](CO)[C@@H](O)[C@H](O)[C@H]2O)cc1Cc1ccc(-c2ccc(F)cc2)s1		Japanese type 2 diabetes patients	100 mg, day 16, 24 h urine collection	relative to: baseline	urinary potassium excretion change	0.447 mEq
C=CC(=O)N1CCC(c2ccc(C(N)=O)c(-c3ccc(Oc4ccccc4)cc3)n2)CC1	CTCAE 4.03	patients with relapsed/refractory MCL	oral, dose not given		incidence of serious acute myeloid leukaemia	0.9%
Cl.[2H]C([2H])([2H])CC(=O)c1cnc(NC(=O)C2CC2)cc1Nc1cccc(-c2ncn(C([2H])([2H])[2H])n2)c1OC		human, fasted, multiple dose	oral, 20 mg once daily, tablet, day 1, geometric mean		Cmax	171 ng/mL
CCCOc1ccc([C@H]2CNC(=O)N2c2ccc3[nH]cnc3c2)cc1		human, elderly, fasted, cerebrospinal fluid	oral, 300 mg twice daily, capsule, 2 h after final dose, day 7, geometric mean		CSF concentration	24.4 ng/mL
CO[C@H]1/C=C/O[C@@]2(C)Oc3c(C)c(O)c4c(O)c(c(/C=N/N5CCN(C)CC5)c(O)c4c3C2=O)NC(=O)/C(C)=C\C=C\[C@H](C)[C@H](O)[C@@H](C)[C@@H](O)[C@@H](C)[C@H](OC(C)=O)[C@@H]1C	measured: vessel puncture site bruise	healthy human participants	oral, 600 mg, with: gepotidacin 1500 mg		adverse event incidence	0%
COc1ccc2c(c1)CN(C(=O)CCN1CCC(Cc3ccccc3)CC1)CC[S@@+]2[O-]	telemetry	conscious male beagle dogs	intravenous, 4 mg/kg, 1 h		QT interval	229 ± 20 ms
CCn1c(SCC(=O)Nc2ccccc2OC)nnc1-c1c[nH]c2ccccc12		octanol/buffer	pH 11, known kinase inactives set		logP	3.33
CC(C)c1nc(N(C)S(C)(=O)=O)nc(-c2ccc(F)cc2)c1/C=C/[C@@H](O)C[C@@H](O)CC(=O)O		healthy human volunteers, plasma	oral, dose not given, BCRP probe substrate, with: multiple-dose momelotinib	relative to: compound alone	increase in AUCinf	170%
O=C(Cc1ccc(OCCN2CCCC2)cc1)Nc1cc(C2CC2)[nH]n1		octanol/buffer, 40 mM buffer	pH 11		logP	2.86
Cc1ccc(CNC(=O)c2cc(/C=C/C(=O)O)cc(-c3ccc4ncnn4c3)c2)cc1		mouse, plasma	37 °C		time stable	> 240 min
CCn1ccc2c([C@@](O)(CC)c3ccc(C(F)(F)F)nc3)n(C)nc2c1=O		rat Sprague-Dawley male, blood	intravenous, 1 mg/kg		CLint,u	50.5 mL/min/kg
COc1ccnc(C[S+]([O-])c2nc3ccc(OC(F)F)cc3[nH]2)c1OC (centres unmarked)		human	oral, median		dose-normalised Cmax	5 µg/mL per mg/kg
COc1cc2c3cc1Oc1c(OC)c(OC)cc4c1[C@@H](Cc1ccc(O)c(c1)Oc1ccc(cc1)C[C@@H]3N(C)CC2)N(C)CC4		mouse plasma, K3EDTA	0 h, 37 °C		remaining compound	100%
O=C(CCCCCCC(=O)Nc1ccc(CC[18F])cc1)NO		athymic nu/nu male mice, LNCaP xenograft, bone	intravenous, 1 h		tissue uptake	11.1 ± 1.6 %ID/g
Nc1cccc2ccc(/C=C/C(=O)c3ccc(O)cc3)cc12		toluene		relative to: coumarin 153 in ethanol	fluorescence quantum yield	54 ± 0.3%
N[C@H]1C(O)O[C@H](CO)[C@@H](O)[C@@H]1O (some centres unmarked)		aqueous solution	1 mM, with: glucose		osmolality	0 mOsmol/kg
